Measurements pooled from the literature.
Each numbered part is a random draw from the data of one study; scales do not carry over between parts. Changes are numbered by the printed parent chain.

Set 1 — target: NFE2L3, bZIP domain (human); method: DHFR protein complementation; medium: yeast; relative to: wild-type JUN-FOS pair; direction: higher = stronger binding; quantity: binding fitness
Setting: single substitutions, most at no-binding floor
Parent: JUN, bZIP domain (human); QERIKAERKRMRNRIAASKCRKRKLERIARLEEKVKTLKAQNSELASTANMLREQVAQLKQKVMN; partner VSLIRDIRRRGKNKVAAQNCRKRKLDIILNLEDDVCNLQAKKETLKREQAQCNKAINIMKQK
L31Y: -1.47 natural log
E33H: -1.54 natural log
E32N: -1.48 natural log
A57L: -1.51 natural log
E32D: -1.51 natural log
L38C: -1.36 natural log
A29Q: -1.47 natural log
S43F: -1.44 natural log

Set 2 — method: aptamer microarray, sandwich; form: DNA with 2'F-ANA; medium: in vitro; tested at: 200 nM; added: Cy3 exosite-II aptamer, 400 nM; direction: higher = stronger binding; quantity: mean fluorescence intensity; sequence: GGTTGGTGTGGTTGG
Target: Prothrombin, mature alpha-thrombin (F2, Homo sapiens, UniProt P00734)
Setting: whole 15-mer aptamer, many near background
2'F-ANA at 3 6 7 10 14 15: 385 a.u.
2'F-ANA at 4 5 7 8 9 10 11 12 13 14: 58.4 a.u.
2'F-ANA at 1 4 5 8 9 13: 62.8 a.u.
2'F-ANA at 1 2 3 4 5 7 9 11 15: 83.4 a.u.
2'F-ANA at 1 2 3 4 8 12 14 15: 83.2 a.u.
2'F-ANA at 3 6 7 8 9 10 11 12: 556 a.u.
2'F-ANA at 3 6 9 12 13 14: 516 a.u.
2'F-ANA at 2 3 4 5 7 8 10 11 12: 58.8 a.u.

Single results of other studies — NCKAP1: NCKAP1 (Homo sapiens, UniProt Q9Y2A7)
P1: PafA, mature enzyme, eGFP fusion (Elizabethkingia meningoseptica, UniProt Q9KJX5); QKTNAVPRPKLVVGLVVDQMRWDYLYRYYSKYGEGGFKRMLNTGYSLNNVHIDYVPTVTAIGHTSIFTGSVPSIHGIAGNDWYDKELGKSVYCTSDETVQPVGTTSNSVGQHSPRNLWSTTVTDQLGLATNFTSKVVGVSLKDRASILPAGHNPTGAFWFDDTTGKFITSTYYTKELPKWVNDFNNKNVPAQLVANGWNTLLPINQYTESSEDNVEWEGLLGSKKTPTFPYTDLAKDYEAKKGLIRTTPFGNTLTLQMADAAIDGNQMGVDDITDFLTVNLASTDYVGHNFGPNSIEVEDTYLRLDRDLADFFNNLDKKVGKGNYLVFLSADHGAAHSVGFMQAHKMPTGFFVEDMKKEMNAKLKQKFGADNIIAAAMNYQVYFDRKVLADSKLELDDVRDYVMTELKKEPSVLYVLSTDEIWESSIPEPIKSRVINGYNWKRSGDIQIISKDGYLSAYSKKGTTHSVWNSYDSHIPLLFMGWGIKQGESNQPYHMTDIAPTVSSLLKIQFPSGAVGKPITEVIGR
FLOT1 (Homo sapiens, UniProt O75955) — interaction screen (EP400 (Homo sapiens, UniProt Q96L91); cross-linking MS; hits only): cross-linked
PhoQ, residues 284 288 289 292 302 303 SNGLAW — fold induction (PhoP, residues 12 14 15 18 19 NFCKL (Escherichia coli, UniProt P23836); Sort-seq, item: YFP reporter; E. coli; PhoQ-PhoP variant library, added: 10 µM Mg2+; relative to: high Mg2+ state, higher = stronger signaling): 10.1
CYFIP1 (Homo sapiens, UniProt Q7L576) — interaction screen (NCKAP1; cross-linking MS; hits only): cross-linked
P1 P512G — oxyanion analog dissociation constant (tungstate, free oxyanion; microfluidic competitive inhibition; in vitro, cell-free expressed; not given, derived from inhibition constants, unchanged parent 2230 nM; lower = stronger binding): 1.8 µM
NSL1 (Homo sapiens, UniProt Q96IY1) — interaction screen (DSN1 (Homo sapiens, UniProt Q9H410); cross-linking MS; hits only): cross-linked
ATP5PD (Homo sapiens, UniProt O75947) — cross-linked residues (ATP5PF (Homo sapiens, UniProt P18859); cross-linking MS; cells; added: BSPNO): K63 to K79
CYFIP2 (Homo sapiens, UniProt Q96F07) — interaction screen (NCKAP1; cross-linking MS; hits only): cross-linked

A few entries again (set 1):
L38C: -1.36 natural log
